# Measured values gathered from unrelated publications.
# Numbers after ± are the reported error.
SMILES,cell line,test,conditions,scale,viability
Nc1ccc(Nc2c(NC3CCN(Cc4ccccc4)CC3)c(=O)c2=O)cc1,SH-SY5Y,MTT,"12.5 µM, 24 h",,103 ± 2.34%
O=C1CCCC2=C1C(c1c[nH]c3ccccc13)n1c(sc(=Cc3c[nH]c4ccccc34)c1=O)=N2 (centres unmarked),SH-SY5Y,"cell growth or viability, MTT",40 µM,,95.4%
Cc1nc(-c2ccc(Cl)cc2)nc2sc3c(=O)n(CCN4CCOCC4)cnc3c12,SH-SY5Y,,"100 µM, 24 h",,93 ± 0.45%
CC[C@H](C)[C@H](NC(=O)[C@@H](NC(=O)[C@H](Cc1ccc(O)cc1)NC(=O)[C@@H]1CSSC[C@@H]2NC(=O)[C@@H]3CCCN3C(=O)[C@H](CC(N)=O)NC(=O)[C@H](Cc3ccccc3)NC(=O)[C@H](CCC(=O)O)NC(=O)[C@H](C(C)C)NC(=O)[C@H](CC(=O)O)NC(=O)[C@@H]3CSSC[C@H](NC(=O)[C@H]([C@@H](C)O)NC(=O)[C@H](CC(C)C)NC(=O)[C@@H]4CCCN4C(=O)[C@@H]4CCCN4C(=O)[C@H](CSSC[C@H](N)C(=O)N4CCC[C@H]4C(=O)NCC(=O)N[C@@H](CCC(=O)O)C(=O)NCC(=O)N[C@@H](CCC(=O)O)C(=O)N[C@@H](CCC(N)=O)C(=O)N3)NC2=O)C(=O)N[C@@H]([C@@H](C)CC)C(=O)N2CCC[C@H]2C(=O)NCC(=O)N[C@@H](CC(=O)O)C(=O)N2CCC[C@H]2C(=O)N[C@@H](Cc2ccc(O)cc2)C(=O)NCC(=O)N[C@@H]([C@@H](C)CC)C(=O)N1)[C@@H](C)CC)C(=O)O,HK-2,MTT,"up to 50 µM, 48 h",,not toxic
O=c1oc2c(CNCCc3cccc(F)c3)c(O)ccc2c2c1CCC2,SH-SY5Y,,"100 µM, 24 h",,95.3 ± 0.32%
COC(=O)C1=CO[C@@H](O)[C@@H]2C(Cn3cc(C(O)(c4ccccc4)c4ccccc4)nn3)=CC[C@H]12,SK-N-SH,MTT,"0.075 to 0.6 µM, 24 h, with: H2O2",,> 78%
O=c1c(NCc2ccc(Br)cc2)c(NC2CCN(Cc3ccccc3)CC2)c1=O,SH-SY5Y,MTT,"12.5 µM, 24 h",,84.74 ± 0.63%
COC(=O)C1=CO[C@@H](O)[C@@H]2C(Cn3cc(C4(O)CCCC4)nn3)=CC[C@H]12,SK-N-SH,MTT,"0.075 to 0.6 µM, 24 h, with: H2O2",,> 78%
O=c1c(Nc2ccccc2)c(NC2CCN(Cc3ccccc3)CC2)c1=O,SH-SY5Y,MTT,"6.25 µM, 24 h",,124.3 ± 0.49%
O=C1CC(c2ccccc2)Oc2cc(O[C@@H]3O[C@H](CO)[C@@H](O)[C@H](O)[C@H]3O)ccc21 (some centres unmarked),Vero E6-GFP,,"highest tested, 72 h, with: CP-100356 2 µM",baseline: untreated,100%
COC(=O)C1=CO[C@@H](O)[C@@H]2C(Cn3cc(-c4ccc(OC)cc4)nn3)=CC[C@H]12,SK-N-SH,MTT,"0.075 to 0.6 µM, 24 h, with: H2O2",,> 78%
N=C(N)NCCC[C@H](NC(=O)[C@H](CCCNC(=N)N)NC(=O)[C@H](CCCNC(=N)N)NC(=O)[C@H](CCC(N)=O)NC(=O)[C@H](CCCNC(=N)N)NC(=O)[C@H](CCCNC(=N)N)NC(=O)[C@H](CCCCN)NC(=O)[C@H](CCCCN)NC(=O)[C@H](CCCNC(=N)N)NC(=O)CNC(=O)[C@H](Cc1ccc(O)cc1)NC(=O)[C@@H](N)CS)C(=O)O,SV-HUC-1,MTT,concentration not given,,no effect
O=c1c(NCCc2ccc(Br)cc2)c(NC2CCN(Cc3ccccc3)CC2)c1=O,SH-SY5Y,MTT,"12.5 µM, 24 h",,91.45 ± 0.65%
COC(=O)C1=CO[C@@H](OC(C)=O)[C@@H]2C(Cn3cc(CCCO)nn3)=CC[C@H]12,SK-N-SH,MTT,"0.075 to 0.6 µM, 24 h, with: H2O2",,> 78%
